Assay results pooled from the literature.
Every numbered part comes from another study and shows a few of its results, in no order. Positions count from the first letter of the parent shown.

Block 1 — method: RNA Bind-n-Seq; form: RNA; medium: in vitro; tested at: 365 nM; relative to: no-protein control; direction: higher = stronger binding
Target: RNA binding protein fox-1 homolog 2, RRM domain, GST-SBP tag (RBFOX2, Homo sapiens, UniProt O43251-10, residues 100-194)
Setting: natural RNA segment, single round, ends assumed
Shared flanks, not repeated: GGGAGUUCUACAGUCCGACGAUC … UGGAAUUCUCGGGUGCCAA
Construct (chain): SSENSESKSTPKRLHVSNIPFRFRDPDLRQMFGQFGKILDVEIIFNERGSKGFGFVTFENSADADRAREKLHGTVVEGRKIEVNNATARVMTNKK
Sequence	RBNS enrichment (R)
AGACUCUUAACGCAGGAAGGACUUCAAACUUCUGCUGAGACCUUGGGGUCAAGGAACAUUUCAUUGGUUUUUUUUGUCCACCCCCAUCUCCCUUGCUCAUUUGGAUGCGU	0.445
GAGUGAUGACGCAGAGACUCAGUGAACUUGAAAAUAGCAUUGCUUCGUGCACUUUGAAUACCAAUCAGGUGUUUUCUGUGCUACUAGUUGUCACGUUGCAUUCAUGUUCA	0.302
AAUCAUUUUUGUUUAACUGAGGAUAUCUAGUGUCUGCUUCAUAGGGUGCUUUGAAAUAUAAAAUGAAAACUUAUUUAUACUGUUUUUACAACAGUCAAAAAGGAAACACA	0.697
CUGUCCACGGUUCCUUUGUUCUAGGCUGUGAACCCGUCCUUGUCUCUUCCCCCACUGUGUGUUUAAACCUUAAUGGUUUGGGAUGUGAACGUGUGUUGGCUAGCUGUAAA	0.493
UAGCUGUGAUUGGUGAGUCAACCGUCUGUGGCUACCAGUUACACUGAGAUUGUAACAGCAUUUUUACUUUCUGUACAACAAAAAAGCUUUGUAAAUAAAAUCUUAACAUU	4.22
UGAGCAGUGACCAUGCAGCCACACCCAAUCACACAAGAGUCAGCAGAAGCCAGAGUCACCGAAGGAUUCUCCUUUUCCGACGCGCUUGGAGUGAACUACACAUAGACCAC	0.365
AGACGUGACUGGCUUUUAGAGUGAGCAUUUCAGUGGUUAGCUAUCAGCUUUUGAAGUCUGGGCAGUUGACAAAGACCAGCCUGGUCCUAGUUAAUGGUAGAAUACUCCCA	0.336
GACAAGUGUUUGGGACUAAUUGAGAAACAAGCCAGCUUAGAUGGAAGCUGUGCUGUGUGACUAUUAGAACUAGGCAGGACCAGUGCUCCUCUUUUAUAGCUAGCAUGGGA	5.61
CUGUUUACAUUGUUUGUUUGGGGAAGAUUGGUAGGGGUCUAAUUACUGUUCACUUCCUUGUUGUAUUGCAGUAAAAGAUUUAAAACAACCAUUGCAUGUUUGCUUUUGAU	27.9
CUCGGCUGGUAGUGGCCCAGAUCUAUGCAGGCCCAUUAGCACACAUUCAAACCUUCCGGGGCUGUGACCUUCAAAGCUGUGUAAAUCAGUGUCAAGCACAUUAUAGUGUU	0.462
GGGUAUCGGGGUGCGAGGUCUGUCUGCACCGGCCCCCACAUCUAACCAGGCCCUGAUGUAGGGGUCGUCCGCUCAGGCUGCCCCCUUGGGCUCUUGCAGCUCUUGUUCAG	0.301
UACACACACACACACUAAAAUAACAUUUAAAAAUAUGUGCCAAAUUAUAUUUGUUCGGGUGCCACCUUCCACCAGCUUACCACUACGGUAGAACUGUCAAAUUCAUCUCC	0.379

Block 2 — target: CREM, bZIP domain (human); method: DHFR protein complementation; medium: yeast; relative to: wild-type JUN-FOS pair; direction: higher = stronger binding
Setting: single substitutions, most at no-binding floor
Starting sequence: JUN, bZIP domain (human); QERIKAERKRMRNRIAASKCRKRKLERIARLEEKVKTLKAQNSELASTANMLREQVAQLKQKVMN; partner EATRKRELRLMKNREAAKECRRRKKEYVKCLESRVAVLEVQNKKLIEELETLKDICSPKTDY
Change	binding fitness
E33M	-1.54 natural log
I28P	-1.5 natural log
A29C	-1.4 natural log
V56R	-1.51 natural log
L52R	-1.55 natural log
L45P	-1.51 natural log
E32F	-1.4 natural log
A57E	-1.39 natural log
S47Q	-1.4 natural log
M51G	-1.46 natural log
K36D	-1.36 natural log
Q41E	-1.45 natural log
E33C	-1.32 natural log
Q55L	-1.56 natural log
M51D	-1.34 natural log
A29G	-1.47 natural log
A49N	-1.56 natural log
E44G	-1.45 natural log
Q55A	-1.51 natural log
V35C	-1.41 natural log
E33V	-1.45 natural log
E44N	-1.4 natural log
R53T	-1.49 natural log
L45D	-1.68 natural log
E54G	-1.49 natural log

Block 3 — method: RNA Bind-n-Seq; form: RNA; medium: in vitro; tested at: 1 µM; setting: whole 134-nt RNA, ends assumed; together with: 150 mM KCl; relative to: input library; direction: higher = stronger binding
Target: Ras GTPase-activating protein-binding protein 1, RRM domain (G3BP1, Homo sapiens, UniProt Q13283)
UniProt Q13283, sequence (whole entry, looked up): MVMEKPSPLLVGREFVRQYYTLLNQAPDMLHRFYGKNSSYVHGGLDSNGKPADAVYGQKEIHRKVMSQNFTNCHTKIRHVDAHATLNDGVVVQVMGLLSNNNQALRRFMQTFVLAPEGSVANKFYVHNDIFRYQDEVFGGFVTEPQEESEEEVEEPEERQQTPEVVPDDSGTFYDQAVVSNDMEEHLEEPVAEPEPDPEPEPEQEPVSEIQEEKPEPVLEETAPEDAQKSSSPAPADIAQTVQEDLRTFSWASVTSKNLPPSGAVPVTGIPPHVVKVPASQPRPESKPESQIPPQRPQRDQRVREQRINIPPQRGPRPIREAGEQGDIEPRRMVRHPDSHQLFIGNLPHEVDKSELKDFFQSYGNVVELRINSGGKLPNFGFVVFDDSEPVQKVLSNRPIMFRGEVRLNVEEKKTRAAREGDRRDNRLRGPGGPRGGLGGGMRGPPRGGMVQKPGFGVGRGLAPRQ
Shared flanks, not repeated: GGGAGUUCUACAGUCCGACGAUC … UGGAAUUCUCGGGUGUCAAGG
Sequence	log2 enrichment
UAACUUUAGAGGAGGAUCUGAUGGAUAUGGCAGUGGACGUGGAUUUGGGGAUGGCUAUAAUGGGUAUGGAGGAGCACCUGGAGGUGGCAA	-0.323
UGGGAGGUGGAUUUUGUUUAUUUUUUUAGCUCAUUUCCAGGCGUGGGAAUUUUUUUUUAAUAUGUGUCAUGAAUAAAGUUGUUUUUGAAA	1.57
GCAGGAAGUAAAAACAAAUGGAAAUGCUUCGGAUAGUGGAAAGGGUGGGGGUUGCUAAGGAAAGGGUGGGAUGGGAGUGGGUAAAGAGUU	1.33
CAAGUCCUGUGCUACACAUCGUAUGUACCGAAUCGGGGAAAGGGAAAGGAAAGGGAAAGUAUUAUGUUACGCCGUUCGGAUCUGCACUUC	-0.145
UGGGAGGUGGAUUUUGUUUAUUUCUUUAGCUCAUUUCCAGGGGUGGGAAUUUUUUUUUAAUAUGUGUCAUGAAUAAAGUUGUUUUUGAAA	1.68
UCCUGUGCUACACAUCGUAUGUACCGAAUCGGGUUUUUGGGAAAAAAAGGGUUUUUGGGAAAGUAUUAUGUUACGCCGUUCGGAUCUGCA	-0.157
UAACUUUAGAGGAGGAUCUGAUGGAUAUGGCAGUGGACGUGGAUUUGGGGAUGGCUAUAAUGGGUAUGGCGGAGGACCUGGAGGUGGCAA	-0.373
GAAAUCCACAGGAAAGUGAUGUCACAAAACUUCACCAACUGCCACACCAAGAUUCGCCAUGUUGAUGCUCAUGCCACGCUAAAUGAUGGU	-0.0436
GUCCUGUGCUACACAUCGUAUGUACCGAAUCGGUUUUUGGAAAAAAAGGAAAAAAAGGAAAGUAUUAUGUUACGCCGUUCGGAUCUGCAC	-0.131
CUCAAGUCCUGUGCUACACAUCGUAUGUACCGAAUCGGAAGGGGAAGGAAGGGGAAAGUAUUAUGUUACGCCGUUCGGAUCUGCACUUCC	0.141
CAAGUCCUGUGCUACACAUCGUAUGUACCGAAUCGGUGGAAAAAGGAAAAAAAGGAAAGUAUUAUGUUACGCCGUUCGGAUCUGCACUUC	0.0444
CCUGUGCUACACAUCGUAUGUACCGAAUCGGGUUUUUUGGGUUUUUUGGGGUUUUUUGGGAAAGUAUUAUGUUACGCCGUUCGGAUCUGC	-0.18
UCCUGUGCUACACAUCGUAUGUACCGAAUCGGGAAAAAAGGAAAAAAGGGGAAAAAAGGAAAGUAUUAUGUUACGCCGUUCGGAUCUGCA	0.0195
UCAAGUCCUGUGCUACACAUCGUAUGUACCGAAUCGGAGGUUUUUGGUUUUUGGAAAGUAUUAUGUUACGCCGUUCGGAUCUGCACUUCC	-0.265

Block 4 — method: EMSA with sequencing; form: double-stranded DNA, one strand shown; medium: in vitro; tested at: 10 and 20 nM; relative to: negative control set to 0; direction: higher = stronger binding
Target: Hepatocyte nuclear factor 3-alpha (Foxa1, Mus musculus, UniProt P35582, residues 1-468, full length assumed)
Setting: whole designed probe, mean of two concentrations, ends assumed
Shared flanks, not repeated: GTGAGCGGTGCCCATTGATGGGGAAC … TTTCACTGGGATCGTGGGGAC
Construct (chain): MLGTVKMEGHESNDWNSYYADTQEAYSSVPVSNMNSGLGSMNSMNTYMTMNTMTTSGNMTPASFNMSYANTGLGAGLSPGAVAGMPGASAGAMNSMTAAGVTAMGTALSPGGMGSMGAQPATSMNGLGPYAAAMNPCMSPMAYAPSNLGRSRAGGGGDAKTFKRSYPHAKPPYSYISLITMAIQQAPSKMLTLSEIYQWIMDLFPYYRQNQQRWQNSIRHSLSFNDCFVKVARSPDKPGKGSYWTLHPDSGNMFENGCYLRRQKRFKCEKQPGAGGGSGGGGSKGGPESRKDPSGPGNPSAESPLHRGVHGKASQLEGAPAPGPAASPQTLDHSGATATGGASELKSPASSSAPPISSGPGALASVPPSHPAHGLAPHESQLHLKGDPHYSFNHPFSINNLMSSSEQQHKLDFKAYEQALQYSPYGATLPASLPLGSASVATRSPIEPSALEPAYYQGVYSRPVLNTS
Sequence	normalised bound fraction [ratio]
AGGGACACTCAGAGAGTGAGGGAAGAAGGCTCTGAAGATCTCACTACTGCAGAGCAAACAGCTCCATAGAGAGATCTTCCTCACCCCAGAGAATGTTTACTCTATTAAATGTTAGAAGAGCATGTGTAAATAGCAAGCTTATTTAGTTTTCAGTTCCACCTCCCTTGGAAAGGAAAAGTGATACAATCATCTT	0.377
AAGTGAAGATGATAAATATGATGGTTTGGGAATTTTTGCCTGGCTGCCATATGCACGAGGAACTAACCAGAGTCTGAAACAGAGAAACCAATGTAATCTAATAACAGAGTTTTTAATTTATATTGTCAATAAATATTAATCAGATATTTTATCAGTTCCTAAAAATGTTGTTTTAATATTTTTCCTACTTTGG	0.149
ATCTTCCCCCTCTTCCTTGCCCCACCAGCTCACCTACGGGGGTTATTTGCAGATAGGAAAATAAATAAAGCCGGCATTCGTTAACGCAGTTCACGCGCATACTGCTGTTTGCTCTGGATGAATCATGGTCCTTTGGCGAGGCGTGGCTCCGGGAGAGCAAAGCACCGTGTCAGGGCCATGATCCGGGCTCGCC	0.344
CATGTTCCAAGAGAAGAGAAGGTAAAGCAGTGTCTATGTTACAAACAAAAAGGAACTGAGCTACAAGACTGAAAAACTGAAAGAAACAGCAATGTAAACAAGCCGTTTACTTGACATCATAAATGTATCTTTGGCTTTCTACTCCTCTCCCTCAAAAAAAAGGAAAGAAAACGTATCAAAATAGGTTAGGCAG	0.427
GAATAATCCCATTGTAAGTCACTCGCCTTCTGGTGGATTTCGGTCAGGGTCAAAGAGCAAACGGGCAGGAACTGGGCTGTTTGAATGAGCTTTGTAATCTAGGTCGTCATCAAGCCATGACTCAATACACAGTGAATTATCTGAAGCCTTTTAGAATTAGCAACTAACCTCCAGGAAACTGGTGCATGTTGCA	-0.0541
CTTTTAGTCCTTTTGTTTTACAGTCTCACAGTTAATTGTTCTTAGTTGATTTATCTTTTCTTACTCTTTCATAAGACTTTTCTTTTATCTCAAGATTACTTTGTTCTTATATTACTAAATTACTTAGTTTCTTCTTATCACCTTAGGCTTTGTTTTAATTATTTCCTTTTTATGTTATCTATTTTTCATTTTA	0.0282
ATCTTCCCCCTCTTCCTTGCCCCACCAGCTCACCTTCCCGGGTTATTTGCAGATAGGAAAATAAATAAAGCCGGCATTCGTTAACCCTCTTCTGGCGCAAACTGCTGTTTGCTCTGGATGAATCATGGTCCTTTGCGGAGCGCCAGCTCCGGGAGAGCAAAGCACCGTGTCAGGGCCATGATCCGGGGTGGCC	0.344
TAGCTACATCCTCTCTCCCCACATCAAGGAAGTGGCACTTCAATCCCCACCCTTTGAGTGTGAACTGCACTTATGACACCTGAGGGAGGAAAAGTAAATACGGTGGATCAACCTGGCAAACACTTTCTGACTCATACAGTCAAGGTTAATATCCACATGATAAGACATGTCGATCGCATACACCCCTGATATG	0.382

A few entries again (block 4):
Sequence	normalised bound fraction [ratio]
AAGTGAAGATGATAAATATGATGGTTTGGGAATTTTTGCCTGGCTGCCATATGCACGAGGAACTAACCAGAGTCTGAAACAGAGAAACCAATGTAATCTAATAACAGAGTTTTTAATTTATATTGTCAATAAATATTAATCAGATATTTTATCAGTTCCTAAAAATGTTGTTTTAATATTTTTCCTACTTTGG	0.149
ATCTTCCCCCTCTTCCTTGCCCCACCAGCTCACCTACGGGGGTTATTTGCAGATAGGAAAATAAATAAAGCCGGCATTCGTTAACGCAGTTCACGCGCATACTGCTGTTTGCTCTGGATGAATCATGGTCCTTTGGCGAGGCGTGGCTCCGGGAGAGCAAAGCACCGTGTCAGGGCCATGATCCGGGCTCGCC	0.344
CATGTTCCAAGAGAAGAGAAGGTAAAGCAGTGTCTATGTTACAAACAAAAAGGAACTGAGCTACAAGACTGAAAAACTGAAAGAAACAGCAATGTAAACAAGCCGTTTACTTGACATCATAAATGTATCTTTGGCTTTCTACTCCTCTCCCTCAAAAAAAAGGAAAGAAAACGTATCAAAATAGGTTAGGCAG	0.427
